Assay results of several laboratories.
Protocols differ between the studies behind these lines.
MAPK8: Mitogen-activated protein kinase 8 (MAPK8, Homo sapiens, UniProt P45983)
UniProt P45983, sequence (whole entry, looked up): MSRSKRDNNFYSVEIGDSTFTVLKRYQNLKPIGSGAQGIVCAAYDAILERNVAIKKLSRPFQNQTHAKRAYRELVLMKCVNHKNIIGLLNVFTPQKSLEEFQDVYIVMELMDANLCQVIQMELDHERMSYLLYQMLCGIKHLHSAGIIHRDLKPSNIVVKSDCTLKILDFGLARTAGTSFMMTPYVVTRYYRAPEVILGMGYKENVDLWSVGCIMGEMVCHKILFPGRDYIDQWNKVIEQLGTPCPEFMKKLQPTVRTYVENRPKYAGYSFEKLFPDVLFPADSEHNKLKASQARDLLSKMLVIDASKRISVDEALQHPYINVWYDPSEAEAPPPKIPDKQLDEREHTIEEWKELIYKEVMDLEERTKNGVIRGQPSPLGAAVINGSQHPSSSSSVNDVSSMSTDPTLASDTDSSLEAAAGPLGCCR

SMILES = c1ccc2c(Nc3cc(C4CCC4)[nH]n3)nc(Nc3ccc4nc[nH]c4c3)nc2c1; target = MAPK8; test = enzyme activity, inhibitor; setting = 0.25 µM; remaining activity = 95%
SMILES = COC(=O)[C@@]1(C)C=C(C(=O)Nc2cccc(C(=O)Nc3ccc(Nc4nccc(-c5cccnc5)n4)c(C)c3)c2)C(=O)CC1; target = MAPK8; test = enzyme activity, inhibitor; setting = 44.44 µM, 0 h, unit not given, added: GSH 10 mM pre-incubation; how to read = reference: vehicle; remaining activity = 0.00878
SMILES = COCC12C(=O)NC3C4(C(OC)CC1O)C1CC5(O)C(OC)C(O)C(OC(C)=O)(C1C5OC(=O)c1ccccc1)C3(O)C(OC)C24 (stereo not shown); target = MAPK8; test = kinase activity, inhibitor, ProQinase kinase profiling; setting = 25 µM; how to read = reference: control; remaining activity = 104%
SMILES = Nc1nc(Nc2ccccc2)sc1C(=O)c1ccccc1; target = MAPK8; test = enzyme activity, inhibitor; setting = 10 µM; remaining activity = 36%
SMILES = Cc1cccc(-c2ccc3nc(NC(=O)C4CCCCC4)nn3c2)c1; target = MAPK8; test = enzyme activity, Dundee kinase panel; setting = 10 µM; remaining activity = 101%
SMILES = COc1c(OCCCN2CCOCC2)ccc2c1N=C(NC(=O)c1cnc(N)nc1)N1CCN=C21; target = MAPK8; test = kinase activity, inhibitor; setting = 1 µM; how to read = reference: untreated control; remaining activity = 104%
SMILES = COc1ccc(NC(=O)Nc2ccc3c(c2)C(=O)N(C(C)CO)CC(C)C(CN(C)Cc2ccc4c(c2)OCO4)O3)cc1 (stereo not shown); target = MAPK8; test = kinase activity, KinaseProfiler; setting = 0.03 µM, species human; how to read = reference: control; remaining activity = 106%
SMILES = Cc1cc(NC(=O)c2cccc(NC(=O)/C(C#N)=C/C(C)(C)C)c2)ccc1Nc1nccc(-c2cccnc2)n1; target = Mitogen-activated protein kinase 8, phosphorylated (MAPK8, Homo sapiens, UniProt P45983); test = enzyme activity after dialysis, inhibitor; setting = 10 µM, 3 days, unit not given; how to read = reference: no inhibitor; remaining activity = 0.443
SMILES = Cc1ccc(C)c(-c2ccc3nc(NC(=O)C4CCCCC4)nn3c2)c1; target = MAPK8; test = enzyme activity, Dundee kinase panel; setting = 10 µM; remaining activity = 101%
SMILES = O=C=[N][Ru-4]123([n]4c5ccc(O)cc5c5c6c(c7cc(F)c[n+]1c7c54)C(=O)NC6=O)[S+]1CC[S+]2CC[S+]3CC1 (stereo not shown); target = MAPK8; test = enzyme activity; setting = 100 nM, human enzyme, added: 10 µM ATP; how to read = reference: untreated; remaining activity = 106%

Some of these lines once more:
SMILES = Cc1ccc(C)c(-c2ccc3nc(NC(=O)C4CCCCC4)nn3c2)c1; target = MAPK8; test = enzyme activity, Dundee kinase panel; setting = 10 µM; remaining activity = 101%
